# Results collected from several papers.
# Protocols differ between the studies behind these lines. Values joined by “and” are separate records of one study, mostly repeats; a detail may differ. ± marks the error that the study gave.
# ALB: Albumin (ALB, Homo sapiens, UniProt P02768)
SMILES,target,test,system,setting,scale,quantity,value
Cn1c(=O)[nH]c(=O)n2c(CC(=O)Nc3cccc4ccccc34)cnc12,"Adenosine receptor A2a (ADORA2A, Homo sapiens, UniProt P29274)","binding, radioligand competition",,"30 µM, together with: [3H]ZM241385",,displacement,16 ± 4%
COc1cccc(F)c1-c1ccc(C(=O)NC[C@@H](N)C(=O)O)s1,"Glutamate receptor ionotropic, NMDA 1, with GluN2A (Grin1, Rattus norvegicus, UniProt P35439)",,,together with: glutamate 300 µM,,Hill slope,1.4
Nc1nc2c(ncn2[C@@H]2O[C@H](COP(=O)(O)O)[C@@H](O)[C@H]2O)c(=O)[nH]1,"GUK1 (Homo sapiens, UniProt Q16774, E72A)","enzyme activity, NADH-coupled",,125 µM,,reaction rate,-0.404 s⁻¹ and 0.816 s⁻¹ and 0.0426 s⁻¹
Nc1ncnc2c1ncn2[C@@H]1O[C@H](COP(=O)(O)OP(=O)(O)O)[C@@H](O)[C@H]1O,"Cell cycle histidine kinase CckA, CA domain (Caulobacter vibrioides, UniProt Q9X688)",isothermal titration calorimetry,Caulobacter crescentus,"concentration not given, 25 °C, together with: without c-di-GMP",,binding enthalpy (ΔH),-4.8 kcal/mol
O=c1cc(CO)occ1[O-].[Cl-].[W+4].c1cc[cH-]c1.c1cc[cH-]c1,ALB,fluorescence quenching,,303 K,,Stern-Volmer quenching constant,15700 L/mol
COc1cc(-c2[o+]c3cc(O)cc(O)c3cc2O[C@@H]2O[C@H](CO)[C@@H](O)[C@H](O)[C@H]2O)cc(O)c1O,ALB,van't Hoff analysis,,concentration not given,,binding enthalpy change,-7.69 kcal/mol
CCN(CCO)CCCC(C)Nc1ccnc2cc(Cl)ccc12 (stereo not drawn),"Sodium channel protein type 5 subunit alpha (SCN5A, Homo sapiens, UniProt Q14524)","sodium current, whole-cell patch clamp",,"300 µM, without ATX-II",,half-inactivation voltage (V1/2),-97.2 mV and -82.4 mV and -92 mV
NC/C(=C\F)COc1cccc(Cn2c(=S)[nH]c(=O)c3[nH]cnc32)c1,"Amine oxidase [copper-containing] 3 (AOC3, Homo sapiens, UniProt Q16853)","H2O2 production, Amplex Red",,"0.1111 µM, recombinant human enzyme",,inhibition,98.6% and 99.6%
CCCCC[C@@H]1NC(=O)[C@@H]2CCCN2C(=O)[C@H](CC(=O)O)NC(=O)[C@H](Cc2ccc(O)cc2)NC(=O)[C@H](CO)NC(=O)[C@H]([C@@H](C)CC)NC(=O)[C@H](Cc2ccc(-c3ccccc3)cc2)NC(=O)[C@H](CC(C)C)NC(=O)[C@@H]2CCCN2C(=O)[C@@H](NC(=O)[C@H](CCCNC(=N)N)NC(=O)[C@H](CCCNC(=N)N)NC(C)=O)CSSC[C@@H](C(=O)N[C@@H](CCCNC(=N)N)C(=O)N[C@@H](CCCNC(=N)N)C(N)=O)NC1=O,"GTPase KRas, GDP-bound (KRAS, Homo sapiens, UniProt P01116, G12D)",affinity selection mass spectrometry,,"mixture library 4, together with: protein titration up to 2.5 µM",lower is stronger binding,lowest bound protein concentration,0.04 µM
CC1(C)[C@@H]2CC[C@@]1(C)[C@@H](O)C2,"uncharacterized protein (Spodoptera exigua, UniProt F1CEY0)","binding, competitor, fluorescence displacement",,"20 µM, pH 7.4, together with: 1-NPN 20 µM",baseline: 1-NPN alone,relative fluorescence,77.8%
Cc1cc(-c2ccnc3[nH]cc(F)c23)cc(F)c1[C@@]1(O)[C@H](C)CN(C(=O)CN)C[C@@H]1C,"Tyrosine-protein kinase JAK1 (JAK1, Homo sapiens, UniProt P23458)","ATP/ADP probe binding, KiNativ",HEK293T lysate,"1 µM, activation loop domain 2",,probe labelling inhibition,35.1%
N[C@@H](Cc1ccc(C(F)(F)P(=O)(O)O)cc1)C(=O)O,"Tyrosine-protein phosphatase non-receptor type 1 (PTPN1, Homo sapiens, UniProt P18031)","inhibitor, pNPP hydrolysis",,,baseline: IC50 PTP-MEG2 over IC50 PTPN1,selectivity ratio,23 fold
Nc1ncnc2c1ncn2[C@@H]1O[C@H](COP(=O)(O)CP(=O)(O)OP(=O)(O)O)[C@@H](O)[C@H]1O,"P2X purinoceptor 1 (P2RX1, Homo sapiens, UniProt P51575, M214A)",saturation binding,HEK293,25 nM,,specific binding,568 CCPM and 353 CCPM and 320 CCPM
O=C(COP(=O)(O)O)[C@@H](O)[C@H](O)[C@H](O)COP(=O)(O)O,"Prostaglandin E synthase 3 (Homo sapiens, UniProt Q15185)","thermal proteome profiling, refers to: PTGES3",HepG2 cell lysate,"concentration not given, 57 over 37 °C, mean",baseline: compound over control,thermal stability ratio,0.573
CSCC[C@H](N)C(=O)Nc1ccc2ccccc2c1,"Puromycin-sensitive aminopeptidase (Rattus norvegicus, UniProt F1M9V7)",substrate,,,,Km,3.3 µM

# Excerpt of the above:
SMILES,target,test,system,setting,scale,quantity,value
CCCCC[C@@H]1NC(=O)[C@@H]2CCCN2C(=O)[C@H](CC(=O)O)NC(=O)[C@H](Cc2ccc(O)cc2)NC(=O)[C@H](CO)NC(=O)[C@H]([C@@H](C)CC)NC(=O)[C@H](Cc2ccc(-c3ccccc3)cc2)NC(=O)[C@H](CC(C)C)NC(=O)[C@@H]2CCCN2C(=O)[C@@H](NC(=O)[C@H](CCCNC(=N)N)NC(=O)[C@H](CCCNC(=N)N)NC(C)=O)CSSC[C@@H](C(=O)N[C@@H](CCCNC(=N)N)C(=O)N[C@@H](CCCNC(=N)N)C(N)=O)NC1=O,"GTPase KRas, GDP-bound (KRAS, Homo sapiens, UniProt P01116, G12D)",affinity selection mass spectrometry,,"mixture library 4, together with: protein titration up to 2.5 µM",lower is stronger binding,lowest bound protein concentration,0.04 µM
CC1(C)[C@@H]2CC[C@@]1(C)[C@@H](O)C2,"uncharacterized protein (Spodoptera exigua, UniProt F1CEY0)","binding, competitor, fluorescence displacement",,"20 µM, pH 7.4, together with: 1-NPN 20 µM",baseline: 1-NPN alone,relative fluorescence,77.8%
Cc1cc(-c2ccnc3[nH]cc(F)c23)cc(F)c1[C@@]1(O)[C@H](C)CN(C(=O)CN)C[C@@H]1C,"Tyrosine-protein kinase JAK1 (JAK1, Homo sapiens, UniProt P23458)","ATP/ADP probe binding, KiNativ",HEK293T lysate,"1 µM, activation loop domain 2",,probe labelling inhibition,35.1%
